Results of several laboratories.
Parts stem from different laboratories: compare values within a part only.
UniProt Q8N4C8, sequence (whole entry, looked up): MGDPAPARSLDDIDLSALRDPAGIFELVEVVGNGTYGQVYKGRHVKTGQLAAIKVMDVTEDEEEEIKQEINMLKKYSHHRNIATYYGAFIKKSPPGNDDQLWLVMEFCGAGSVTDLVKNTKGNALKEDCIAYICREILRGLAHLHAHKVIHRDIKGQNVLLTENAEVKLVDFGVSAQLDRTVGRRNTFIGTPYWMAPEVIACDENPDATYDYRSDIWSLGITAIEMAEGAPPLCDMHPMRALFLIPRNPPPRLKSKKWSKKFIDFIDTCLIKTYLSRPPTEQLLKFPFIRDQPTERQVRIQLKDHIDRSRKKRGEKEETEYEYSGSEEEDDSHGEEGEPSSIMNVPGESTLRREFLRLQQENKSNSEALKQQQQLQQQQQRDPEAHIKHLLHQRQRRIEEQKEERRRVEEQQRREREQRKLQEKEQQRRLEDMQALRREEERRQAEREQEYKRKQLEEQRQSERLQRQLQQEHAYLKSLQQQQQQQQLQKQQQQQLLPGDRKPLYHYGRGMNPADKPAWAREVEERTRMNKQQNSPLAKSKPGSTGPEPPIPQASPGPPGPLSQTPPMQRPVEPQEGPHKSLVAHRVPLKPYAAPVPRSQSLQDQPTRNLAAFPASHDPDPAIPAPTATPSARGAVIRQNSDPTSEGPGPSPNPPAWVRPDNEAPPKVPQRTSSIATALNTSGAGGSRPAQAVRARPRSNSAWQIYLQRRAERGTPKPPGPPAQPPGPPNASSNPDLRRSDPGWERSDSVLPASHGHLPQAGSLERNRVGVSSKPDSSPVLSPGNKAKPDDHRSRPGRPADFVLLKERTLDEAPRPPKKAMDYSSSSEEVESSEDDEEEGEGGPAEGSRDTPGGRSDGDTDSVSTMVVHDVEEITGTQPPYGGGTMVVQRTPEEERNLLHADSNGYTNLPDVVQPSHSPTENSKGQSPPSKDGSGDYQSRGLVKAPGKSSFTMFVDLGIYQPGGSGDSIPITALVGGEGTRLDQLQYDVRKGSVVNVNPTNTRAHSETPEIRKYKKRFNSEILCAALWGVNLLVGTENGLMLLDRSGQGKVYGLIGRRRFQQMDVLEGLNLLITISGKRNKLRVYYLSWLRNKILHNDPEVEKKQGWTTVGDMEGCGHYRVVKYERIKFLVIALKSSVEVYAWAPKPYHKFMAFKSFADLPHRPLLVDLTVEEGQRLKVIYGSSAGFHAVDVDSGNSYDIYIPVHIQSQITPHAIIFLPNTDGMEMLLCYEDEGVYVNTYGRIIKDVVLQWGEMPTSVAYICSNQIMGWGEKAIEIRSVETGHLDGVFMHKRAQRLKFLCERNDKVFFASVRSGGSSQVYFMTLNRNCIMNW
UniProt P35626, sequence (whole entry, looked up): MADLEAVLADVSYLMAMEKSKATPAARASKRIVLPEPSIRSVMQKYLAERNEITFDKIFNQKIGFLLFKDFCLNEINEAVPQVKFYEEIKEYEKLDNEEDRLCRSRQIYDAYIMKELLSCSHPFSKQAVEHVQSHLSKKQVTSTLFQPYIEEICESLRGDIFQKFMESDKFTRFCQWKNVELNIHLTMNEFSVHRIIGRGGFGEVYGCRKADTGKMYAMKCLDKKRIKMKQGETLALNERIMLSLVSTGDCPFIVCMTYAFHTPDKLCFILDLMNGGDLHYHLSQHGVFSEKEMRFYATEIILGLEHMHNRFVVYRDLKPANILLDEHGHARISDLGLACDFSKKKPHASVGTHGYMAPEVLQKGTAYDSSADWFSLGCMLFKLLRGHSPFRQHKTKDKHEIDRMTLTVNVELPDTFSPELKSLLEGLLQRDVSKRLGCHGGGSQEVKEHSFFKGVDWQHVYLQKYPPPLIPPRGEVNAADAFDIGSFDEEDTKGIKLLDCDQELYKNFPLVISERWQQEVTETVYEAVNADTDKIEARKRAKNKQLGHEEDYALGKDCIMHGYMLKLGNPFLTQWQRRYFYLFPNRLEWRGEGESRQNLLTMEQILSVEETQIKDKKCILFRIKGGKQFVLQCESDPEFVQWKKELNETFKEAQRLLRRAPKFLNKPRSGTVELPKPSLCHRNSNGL
UniProt Q9BZL6, sequence (whole entry, looked up): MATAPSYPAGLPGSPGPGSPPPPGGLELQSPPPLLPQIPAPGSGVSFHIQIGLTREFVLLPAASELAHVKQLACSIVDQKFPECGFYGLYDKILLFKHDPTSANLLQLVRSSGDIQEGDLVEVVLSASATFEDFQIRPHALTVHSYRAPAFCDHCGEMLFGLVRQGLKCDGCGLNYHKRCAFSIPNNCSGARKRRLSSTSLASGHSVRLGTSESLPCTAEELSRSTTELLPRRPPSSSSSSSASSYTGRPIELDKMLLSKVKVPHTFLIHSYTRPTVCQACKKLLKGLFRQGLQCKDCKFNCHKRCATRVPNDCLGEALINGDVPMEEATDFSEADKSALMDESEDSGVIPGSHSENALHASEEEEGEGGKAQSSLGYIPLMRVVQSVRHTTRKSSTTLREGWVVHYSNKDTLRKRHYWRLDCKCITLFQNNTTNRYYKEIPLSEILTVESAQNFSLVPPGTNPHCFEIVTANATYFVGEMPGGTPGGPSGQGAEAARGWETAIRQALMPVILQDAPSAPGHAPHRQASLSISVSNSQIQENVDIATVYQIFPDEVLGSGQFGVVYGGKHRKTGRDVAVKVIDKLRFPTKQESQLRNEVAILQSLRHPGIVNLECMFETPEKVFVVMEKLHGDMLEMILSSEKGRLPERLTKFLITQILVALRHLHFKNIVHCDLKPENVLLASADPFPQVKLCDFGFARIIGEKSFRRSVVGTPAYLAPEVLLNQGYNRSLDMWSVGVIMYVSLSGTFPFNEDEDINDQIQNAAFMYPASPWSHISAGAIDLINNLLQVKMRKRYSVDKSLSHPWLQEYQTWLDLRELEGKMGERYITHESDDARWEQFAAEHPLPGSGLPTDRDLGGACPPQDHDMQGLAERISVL
UniProt Q9Y243, sequence (whole entry, looked up): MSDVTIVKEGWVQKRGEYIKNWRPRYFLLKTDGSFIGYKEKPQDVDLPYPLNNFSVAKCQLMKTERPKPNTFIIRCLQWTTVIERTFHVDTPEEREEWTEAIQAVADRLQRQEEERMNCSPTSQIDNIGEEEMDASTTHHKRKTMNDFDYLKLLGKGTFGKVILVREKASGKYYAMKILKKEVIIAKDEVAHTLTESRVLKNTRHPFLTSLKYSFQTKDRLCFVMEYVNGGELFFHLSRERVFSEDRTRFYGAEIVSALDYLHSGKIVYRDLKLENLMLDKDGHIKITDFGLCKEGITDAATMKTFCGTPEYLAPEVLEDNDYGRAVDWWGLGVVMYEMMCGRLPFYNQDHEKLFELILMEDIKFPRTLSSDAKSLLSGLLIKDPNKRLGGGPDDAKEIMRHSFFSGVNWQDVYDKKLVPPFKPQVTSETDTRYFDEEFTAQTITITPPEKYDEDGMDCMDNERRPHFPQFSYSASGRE
UniProt O95747, sequence (whole entry, looked up): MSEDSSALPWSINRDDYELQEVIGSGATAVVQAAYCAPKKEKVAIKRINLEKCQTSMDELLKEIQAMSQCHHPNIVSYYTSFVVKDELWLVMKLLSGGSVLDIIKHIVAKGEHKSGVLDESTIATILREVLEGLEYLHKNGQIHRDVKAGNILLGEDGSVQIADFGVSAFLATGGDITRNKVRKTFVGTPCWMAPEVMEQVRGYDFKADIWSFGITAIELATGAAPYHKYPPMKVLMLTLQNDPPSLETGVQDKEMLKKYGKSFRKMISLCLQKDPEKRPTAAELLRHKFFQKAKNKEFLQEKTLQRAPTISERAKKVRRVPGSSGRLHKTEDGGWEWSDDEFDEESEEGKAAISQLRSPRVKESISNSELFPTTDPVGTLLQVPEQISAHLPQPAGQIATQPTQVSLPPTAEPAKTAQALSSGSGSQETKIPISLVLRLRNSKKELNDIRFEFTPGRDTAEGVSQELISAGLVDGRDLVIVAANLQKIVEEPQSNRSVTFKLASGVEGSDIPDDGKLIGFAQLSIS
UniProt O14730, sequence (whole entry, looked up): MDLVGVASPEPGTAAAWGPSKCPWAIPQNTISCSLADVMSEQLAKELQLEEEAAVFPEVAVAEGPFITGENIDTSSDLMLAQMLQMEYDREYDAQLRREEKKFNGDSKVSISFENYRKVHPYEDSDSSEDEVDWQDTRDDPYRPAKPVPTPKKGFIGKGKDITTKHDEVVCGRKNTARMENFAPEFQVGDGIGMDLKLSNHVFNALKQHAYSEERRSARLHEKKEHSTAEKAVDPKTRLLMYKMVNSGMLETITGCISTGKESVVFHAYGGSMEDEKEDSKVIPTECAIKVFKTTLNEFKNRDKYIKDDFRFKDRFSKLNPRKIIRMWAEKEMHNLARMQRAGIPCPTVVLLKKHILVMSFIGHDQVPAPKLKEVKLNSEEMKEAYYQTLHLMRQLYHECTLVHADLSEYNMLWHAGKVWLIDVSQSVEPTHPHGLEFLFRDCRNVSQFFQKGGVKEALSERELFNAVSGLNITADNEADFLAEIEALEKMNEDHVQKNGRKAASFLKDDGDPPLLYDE

Sample 1
Species: mouse
Sample: microsomes or S9
Tested at: 2 µM
Time: 0.5 h
Structure (SMILES)	remaining compound
COc1ccc(N)cc1N1CCCCS1(=O)=O	94.1%
c1ccn2c(-c3noc(C4CCn5c(cnc5C5CCCCC5)C4)n3)cnc2c1 (centres unmarked)	17.8%
CC(C)CCNC(=O)N1Cc2c(sc3c2CCCC3)-n2cccc2C1c1ccccc1 (centres unmarked)	< 1%
CCN(CC)CCCOC(=O)C1(c2ccc(F)cc2)CCCC1	4.09%
O=C(CN1CCCCCC1)NCC12CCCC=C1NC(=O)CC2 (centres unmarked)	26.5%
COc1ccc2c[nH]c(=O)c(-c3nc4ccccn4c3Nc3ccc(OC)c(OC)c3)c2c1	25.3%

Sample 2
Target: Interleukin-1 receptor-associated kinase 4 (IRAK4, Homo sapiens, UniProt Q9NWZ3)
UniProt Q9NWZ3, sequence (whole entry, looked up): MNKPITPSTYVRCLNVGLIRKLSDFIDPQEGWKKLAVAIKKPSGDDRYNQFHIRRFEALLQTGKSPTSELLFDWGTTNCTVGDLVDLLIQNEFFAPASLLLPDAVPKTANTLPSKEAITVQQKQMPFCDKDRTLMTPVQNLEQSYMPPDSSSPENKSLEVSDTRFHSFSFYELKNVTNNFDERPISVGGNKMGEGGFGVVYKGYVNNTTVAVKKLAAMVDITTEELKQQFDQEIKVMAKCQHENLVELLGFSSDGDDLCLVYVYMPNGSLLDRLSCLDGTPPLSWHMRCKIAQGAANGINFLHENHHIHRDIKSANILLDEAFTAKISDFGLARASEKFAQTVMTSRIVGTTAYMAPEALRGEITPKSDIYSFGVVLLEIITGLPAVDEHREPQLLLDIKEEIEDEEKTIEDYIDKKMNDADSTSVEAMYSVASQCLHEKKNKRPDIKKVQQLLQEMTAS
Effect on: enzyme activity
Action: inhibitor
Tested at: 0.5 µM
Relative to: control
Compound	remaining activity [%]
O=C(O)c1ccc2c3c1cccc3c(=O)n1c3ccccc3nc21	107
Cc1cccc(-c2[nH]c(C(C)(C)C)nc2-c2ccc3c(c2)OCO3)n1	86.8
Cc1nc(-c2ccccc2)c(-c2ccncc2)o1	107
O=C(CCCc1ccc(-c2ccccc2F)cc1)Nc1ccc(O)cc1	86.3
O=C1NC(=O)C(c2cn(CCCO)c3ncccc23)=C1c1cnccn1	129
N#CC(C#N)=C(N)/C(C#N)=C/c1ccc(O)cc1	92.6
Cc1ccc(NC(=O)c2ccc(CN3CCN(C)CC3)cc2)cc1Nc1nc(-c2cccnc2)cs1	97.4
Nc1ccc2ncnc(NCCc3ccc(Oc4ccccc4)cc3)c2c1	92.4
NCCNc1ncc(C(N)=O)c(Nc2cccc(C(F)(F)F)c2)n1	91.2
O=c1c2ccccc2[nH]c(=S)n1CCN1CCC(=C(c2ccc(F)cc2)c2ccc(F)cc2)CC1	105
Cn1c2ccccc2c2c3c(c4c5ccccc5n(CCC#N)c4c21)CNC3=O	63.5
Cn1sc(=O)n(Cc2ccccc2)c1=O	107
COc1ccc(OC)c2c(=S)c3ccccc3[nH]c12	109
CC(C)[C@H](CO)Nc1nc(Nc2cc(N)cc(Cl)c2)c2ncn(C(C)C)c2n1	86.8
CN(C)c1ccc(C=C2C(=O)Nc3ccccc32)cc1	104

Sample 3
SMILES: Cc1ccc(NC(=O)c2ccnc(C(F)(F)F)c2)cc1-c1cc(OCCO)nc(N2CCOCC2)c1
Tested at: 1 µM
target	effect on	method	remaining binding [%]
MAP3K3 (Homo sapiens, UniProt Q99759)	binding	competition with immobilised ligand	100
RIOK3 (Homo sapiens, UniProt O14730)	binding		66
MYLK4 (Homo sapiens, UniProt Q86YV6)	binding		96
Tyrosine-protein kinase JAK2, JH1 (JAK2, Homo sapiens, UniProt O60674)	cell-free assay	competition with immobilised ligand	69
Ribosomal protein S6 kinase alpha-6, N-terminal kinase domain (RPS6KA6, Homo sapiens, UniProt Q9UK32)	binding	competition with immobilised ligand	81
AKT3 (Homo sapiens, UniProt Q9Y243)	binding		100
MINK1 (Homo sapiens, UniProt Q8N4C8)	binding	competition with immobilised ligand	83
HCK (Homo sapiens, UniProt P08631)	binding	competition with immobilised ligand	95

Sample 4
Structure (SMILES): O=C(Nc1cccnn1)N1CC(C/C=C/c2cncc(Oc3ccc(C(F)(F)F)cn3)n2)C1
Effect on: cell-free assay
Method: competition with immobilised ligand
Tested at: 1 µM
target	remaining binding [%]
NUAK2 (Homo sapiens, UniProt Q9H093)	73
PIM3 (Homo sapiens, UniProt Q86V86)	100
OXSR1 (Homo sapiens, UniProt O95747)	71
PRKD1 (Homo sapiens, UniProt Q15139)	100
PRKD2 (Homo sapiens, UniProt Q9BZL6)	100
GRK3 (Homo sapiens, UniProt P35626)	100

A few entries again (sample 2):
Compound	remaining activity [%]
COc1ccc(OC)c2c(=S)c3ccccc3[nH]c12	109
CC(C)[C@H](CO)Nc1nc(Nc2cc(N)cc(Cl)c2)c2ncn(C(C)C)c2n1	86.8
